{"data": "Experimental data from different studies", "note": "Parts stem from different laboratories: compare values within a part only. Positions count from the first letter of the parent shown."}
{"data": "Sample 1", "target": "ATF2, bZIP domain (human)", "technique": "DHFR protein complementation", "sample": "yeast", "notes": "single substitutions, most at no-binding floor", "relative to": "wild-type JUN-FOS pair", "reading": "higher = stronger binding", "starting sequence": "JUN, bZIP domain (human); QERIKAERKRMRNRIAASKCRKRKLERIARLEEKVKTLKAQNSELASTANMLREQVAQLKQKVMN; partner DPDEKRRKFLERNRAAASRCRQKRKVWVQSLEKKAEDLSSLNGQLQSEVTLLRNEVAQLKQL"}
{"Change": "R53N", "binding fitness": "-1.53 natural log"}
{"Change": "E44D", "binding fitness": "-1.14 natural log"}
{"Change": "Q55P", "binding fitness": "-1.53 natural log"}
{"Change": "E33C", "binding fitness": "-1.41 natural log"}
{"Change": "V56H", "binding fitness": "-1.46 natural log"}
{"Change": "S43E", "binding fitness": "-1.36 natural log"}
{"Change": "A29T", "binding fitness": "-1.32 natural log"}
{"Change": "V35D", "binding fitness": "-1.51 natural log"}
{"Change": "L45V", "binding fitness": "-1.52 natural log"}
{"Change": "E54G", "binding fitness": "-1.45 natural log"}
{"Change": "Q55F", "binding fitness": "-1.57 natural log"}
{"Change": "V56P", "binding fitness": "-1.52 natural log"}
{"Change": "E32R", "binding fitness": "-1.37 natural log"}
{"Change": "E54C", "binding fitness": "-1.41 natural log"}
{"Change": "L59H", "binding fitness": "-1.52 natural log"}
{"Change": "T48R", "binding fitness": "-1.32 natural log"}
{"Change": "I28P", "binding fitness": "-1.46 natural log"}
{"Change": "A40T", "binding fitness": "-1.35 natural log"}
{"Change": "E32P", "binding fitness": "-1.51 natural log"}
{"data": "Sample 2", "target": "TAR DNA-binding protein 43, full length, His tag (TARDBP, Homo sapiens, UniProt Q13148, residues 1-414)", "technique": "RNA Bind-n-Seq", "molecule type": "RNA", "sample": "in vitro", "tested at": "20 nM", "notes": "6-mer, flanks averaged, single round", "with": "150 mM LiCl", "relative to": "input library", "reading": "higher = stronger binding"}
{"Sequence": "UGCGCA", "6-mer enrichment (R)": 1.03}
{"Sequence": "GACGGU", "6-mer enrichment (R)": 0.983}
{"Sequence": "CUUAGC", "6-mer enrichment (R)": 0.883}
{"Sequence": "GUUGGG", "6-mer enrichment (R)": 1.34}
{"Sequence": "UCAAAA", "6-mer enrichment (R)": 0.831}
{"Sequence": "GCAGAU", "6-mer enrichment (R)": 0.898}
{"Sequence": "CUCCAG", "6-mer enrichment (R)": 0.919}
{"Sequence": "AGAGAA", "6-mer enrichment (R)": 0.964}
{"Sequence": "AUACCC", "6-mer enrichment (R)": 0.966}
{"Sequence": "CAUCGU", "6-mer enrichment (R)": 0.867}
{"Sequence": "GCACUA", "6-mer enrichment (R)": 0.869}
{"Sequence": "GACCAA", "6-mer enrichment (R)": 0.843}
{"Sequence": "CCGGUC", "6-mer enrichment (R)": 0.884}
{"Sequence": "GUGUGA", "6-mer enrichment (R)": 1.86}
{"Sequence": "GUAAUA", "6-mer enrichment (R)": 0.944}
{"Sequence": "GCGCUU", "6-mer enrichment (R)": 0.963}
{"Sequence": "AUGAGA", "6-mer enrichment (R)": 0.973}
{"Sequence": "AUGGAC", "6-mer enrichment (R)": 0.956}
{"Sequence": "CCCUCU", "6-mer enrichment (R)": 1.11}
{"Sequence": "CUCGGU", "6-mer enrichment (R)": 0.884}
{"Sequence": "GCGAUA", "6-mer enrichment (R)": 0.896}
{"Sequence": "CGUAAG", "6-mer enrichment (R)": 0.864}
{"Sequence": "CUUUGG", "6-mer enrichment (R)": 0.992}
{"data": "Sample 3", "target": "CCNE1, cyclin fold, Cln2 fusion (human)", "technique": "yeast growth competition, sequencing", "sample": "yeast", "notes": "strong parent motif", "relative to": "not given", "reading": "higher = stronger binding", "starting sequence": "SCAPER docking peptide (human); SNARRSLNFGGST"}
{"Change": "R4T", "normalised enrichment score": 0.61}
{"Change": "G11Y", "normalised enrichment score": 0.689}
{"Change": "N2S", "normalised enrichment score": 1.21}
{"Change": "A3E", "normalised enrichment score": 0.498}
{"Change": "R5A", "normalised enrichment score": 0.269}
{"Change": "N2R", "normalised enrichment score": 0.806}
{"Change": "R5V", "normalised enrichment score": 0.666}
{"Change": "S1G", "normalised enrichment score": 0.946}
{"Change": "S12N", "normalised enrichment score": 2}
{"Change": "L7N", "normalised enrichment score": 0.0468}
{"Change": "S12I", "normalised enrichment score": 1.3}
{"Change": "S1T", "normalised enrichment score": 0.798}
{"Change": "S1P", "normalised enrichment score": 0.774}
{"Change": "A3T", "normalised enrichment score": 0.685}
{"Change": "S1N", "normalised enrichment score": 1.24}
{"Change": "G11E", "normalised enrichment score": 1.12}
{"Change": "T13K", "normalised enrichment score": 1.15}
{"Change": "G10V", "normalised enrichment score": -0.905}
{"Change": "G10N", "normalised enrichment score": 0.204}
{"Change": "A3Y", "normalised enrichment score": 0.429}
{"Change": "N8Q", "normalised enrichment score": 0.662}
{"Change": "N2C", "normalised enrichment score": 0.403}
{"Change": "R4M", "normalised enrichment score": -0.306}
{"Change": "L7C", "normalised enrichment score": 0.524}
{"Change": "S1Q", "normalised enrichment score": 0.495}
{"data": "Sample 4", "target": "RNA binding protein fox-1 homolog 2, RRM domain, GST-SBP tag (RBFOX2, Homo sapiens, UniProt O43251-10, residues 100-194)", "technique": "RNA Bind-n-Seq", "molecule type": "RNA", "sample": "in vitro", "tested at": "365 nM", "notes": "natural RNA segment, single round, ends assumed", "relative to": "no-protein control", "reading": "higher = stronger binding", "shared flanks, not repeated": "GGGAGUUCUACAGUCCGACGAUC … UGGAAUUCUCGGGUGCCAA", "Residues (chain)": "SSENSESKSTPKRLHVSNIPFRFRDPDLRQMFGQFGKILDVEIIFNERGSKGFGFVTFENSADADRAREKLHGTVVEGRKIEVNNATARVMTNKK"}
{"Sequence": "GAGUUUGAGGCUUGCAGUUGCAACAGCUGGAUGUUUGGUGGUUCUUGCUGCCAGCCAAAUAAAUUGGUGUUUAGUGAACAUUUUCAGUGUUUCCCCGCCAUGCAAAGCUU", "RBNS enrichment (R)": 0.568}
{"Sequence": "UUUCUCGGGAAUUUUCAUCUAGGAUUUUAAGGGAAGGGGAAGGAUAGGGUGAUGUUCCGAAGGUGAGGAGCUUGAAACCCGUGGCGCUUUCUGCAGUUUGCAGGUUAUCA", "RBNS enrichment (R)": 0.616}
{"Sequence": "UUGCAGGAACGCACAAUUCAUUUUAUCAAGUUGAAUGAAUAGGACCAUUCUCUCCUCAUCAGAUUUCUGUUCUUUAUUUGACUUCAUUGACAUAUACCCUGGUGACUAUA", "RBNS enrichment (R)": 0.601}
{"Sequence": "CUUUGGAUCCCUCUGUCCCAGAGCCACCCAGAACCCUGACUCUUGAGAAUCAAGAAAACACCCAGAAAGGCCUUAAUGACCUCAUAGGCACUCUUCCAAAAAGACAACAG", "RBNS enrichment (R)": 0.385}
{"Sequence": "AUGCAAUGGUGUUACACUGGAGCCCGCUGCAGGCCAGCUCUGCUGUUCACUGGCCCUACCCGAGACUGGUGAAACUGGAAGUCUUCACACUGGAGUUGCUGUUCCAGCUG", "RBNS enrichment (R)": 0.309}
{"Sequence": "GACGUCCACAGAGGCAGCACGGAGUGGCGAAACUCGGUUCCAGCCUGUCGUCGGCAGUGAGCGGGUUUAGCUUUACACAGCCUCUGCCCAGCUUUAACUUGUAAGACAGC", "RBNS enrichment (R)": 1.67}
{"Sequence": "CUCUGCUCCACUGUCUGCAGCCCAGAUCCUGUUGGGCCUGGCUGGUGUCUGGUAACCAUGGGCCUCCACUGACCCAUCCCUCUCUUUUAAACUGUCAGGUCAUUAUCAGG", "RBNS enrichment (R)": 0.444}
{"Sequence": "UGGCCUAUGGCGAGAAAGGCUAUGGGACAGUGAUCCCCCCACAGGCCUCGCUGGUCUUUCACGUCCUCCUGAUUGACGUGCACAACCCGAAGGACGCUGUCCAGCUAGAG", "RBNS enrichment (R)": 0.221}
{"data": "Sample 5", "target": "Ras GTPase-activating protein-binding protein 1, full length (G3BP1, Homo sapiens, UniProt Q13283)", "technique": "RNA Bind-n-Seq", "molecule type": "RNA", "sample": "in vitro", "tested at": "200 nM", "notes": "whole 134-nt RNA, ends assumed", "with": "150 mM KCl", "relative to": "input library", "reading": "higher = stronger binding", "shared flanks, not repeated": "GGGAGUUCUACAGUCCGACGAUC … UGGAAUUCUCGGGUGUCAAGG", "UniProt Q13283, sequence (whole entry, looked up)": "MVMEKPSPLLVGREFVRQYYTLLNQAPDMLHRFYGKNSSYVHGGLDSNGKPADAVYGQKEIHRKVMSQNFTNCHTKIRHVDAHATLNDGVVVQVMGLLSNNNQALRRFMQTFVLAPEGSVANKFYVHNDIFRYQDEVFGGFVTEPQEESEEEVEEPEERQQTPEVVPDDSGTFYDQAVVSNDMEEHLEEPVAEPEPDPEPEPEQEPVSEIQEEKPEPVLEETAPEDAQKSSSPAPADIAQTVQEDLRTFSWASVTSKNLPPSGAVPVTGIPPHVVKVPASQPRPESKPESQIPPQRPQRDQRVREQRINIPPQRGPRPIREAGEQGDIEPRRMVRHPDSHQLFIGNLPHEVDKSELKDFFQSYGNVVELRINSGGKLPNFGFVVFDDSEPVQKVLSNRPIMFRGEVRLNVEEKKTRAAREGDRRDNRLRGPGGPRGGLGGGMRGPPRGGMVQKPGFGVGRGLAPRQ"}
{"Sequence": "GUCCUGUGCUACACAUCGUAUGUACCGAAUCGGGUUUGGGUUUUUGGGAAAAAAAGGGAAAGUAUUAUGUUACGCCGUUCGGAUCUGCAC", "log2 enrichment": -0.377}
{"Sequence": "CAACUUUAGAGGAGGAUCUGAUGGAUAUGGCAGUGGACGUGGAUUUGGGGAUGGCUAUAAUGGGUAUGGAGGAGGACCUGGAGGUGGCAA", "log2 enrichment": 0.508}
{"Sequence": "GUCCUGUGCUACACAUCGUAUGUACCGAAUCGGGAAAAAAAGGGAAAGGGAAAAAGGGAAAGUAUUAUGUUACGCCGUUCGGAUCUGCAC", "log2 enrichment": -0.581}
{"Sequence": "AGUCCUGUGCUACACAUCGUAUGUACCGAAUCGGAAAAGGGAAAAGGGGAAAAGGGGAAAGUAUUAUGUUACGCCGUUCGGAUCUGCACU", "log2 enrichment": -0.244}
{"Sequence": "UAACUUUAGAGGAGGAUCUGAGGGAUAUGGCAGUGGACGUGGAUUUGGGGAUGGCUAUAAUGGGUAUGGAGGAGGACCUGGAGGUGGCAA", "log2 enrichment": 0.477}
{"Sequence": "UGUCCCAGGGAACGCCGGUGCAGAUGUGCUUCUUGUGGGCUCAGAGGCCUUCGUGCUGCUGGACGGGCAGGAGCUGACGCCUCGCUGGAC", "log2 enrichment": -1.52}
{"Sequence": "UCCUGUGCUACACAUCGUAUGUACCGAAUCGGGAAAAAGGGUUUUUGGGUUUUUUUGGGAAAGUAUUAUGUUACGCCGUUCGGAUCUGCA", "log2 enrichment": -0.561}
{"Sequence": "AUUUCUCAGUUGAAGGAUGCUUACACUCUUGUCCAUCUAGACCUCAAUUACUGUUUUUCAGGAAUGUCUGAUCACAGAUACGGGGAUGGU", "log2 enrichment": -1.2}
{"Sequence": "UAACUUUAGAGGAGGAUCUGAUGGAUAUGGCAGUGGACGUGGAUUUGGGGAUGGCUAUAAUGGGUAUGGAGGAGGUCCUGGAGGUGGCAA", "log2 enrichment": 0.384}
{"note": "Excerpt of the above (sample 3):"}
{"Change": "G11Y", "normalised enrichment score": 0.689}
{"Change": "N2S", "normalised enrichment score": 1.21}
{"Change": "A3E", "normalised enrichment score": 0.498}
{"Change": "R5A", "normalised enrichment score": 0.269}
{"Change": "N2R", "normalised enrichment score": 0.806}
{"Change": "R5V", "normalised enrichment score": 0.666}
{"Change": "S1G", "normalised enrichment score": 0.946}
{"Change": "S12N", "normalised enrichment score": 2}
{"Change": "L7N", "normalised enrichment score": 0.0468}
{"Change": "S12I", "normalised enrichment score": 1.3}
{"Change": "S1T", "normalised enrichment score": 0.798}
{"Change": "S1P", "normalised enrichment score": 0.774}
